Results of several laboratories.
A part holds a random share of what one study measured. ± marks the error that the study gave.

Sample 1
SMILES: C=CCc1ccc(O)c(-c2ccc(O)c(CC=C)c2)c1
Effect on: chloride current
Technique: whole-cell voltage clamp
ANO1 del476-501/F628I: Anoctamin-1 (ANO1, Homo sapiens, UniProt Q5XXA6, del476-501/F628I)
UniProt Q5XXA6, sequence (whole entry, unmodified, looked up): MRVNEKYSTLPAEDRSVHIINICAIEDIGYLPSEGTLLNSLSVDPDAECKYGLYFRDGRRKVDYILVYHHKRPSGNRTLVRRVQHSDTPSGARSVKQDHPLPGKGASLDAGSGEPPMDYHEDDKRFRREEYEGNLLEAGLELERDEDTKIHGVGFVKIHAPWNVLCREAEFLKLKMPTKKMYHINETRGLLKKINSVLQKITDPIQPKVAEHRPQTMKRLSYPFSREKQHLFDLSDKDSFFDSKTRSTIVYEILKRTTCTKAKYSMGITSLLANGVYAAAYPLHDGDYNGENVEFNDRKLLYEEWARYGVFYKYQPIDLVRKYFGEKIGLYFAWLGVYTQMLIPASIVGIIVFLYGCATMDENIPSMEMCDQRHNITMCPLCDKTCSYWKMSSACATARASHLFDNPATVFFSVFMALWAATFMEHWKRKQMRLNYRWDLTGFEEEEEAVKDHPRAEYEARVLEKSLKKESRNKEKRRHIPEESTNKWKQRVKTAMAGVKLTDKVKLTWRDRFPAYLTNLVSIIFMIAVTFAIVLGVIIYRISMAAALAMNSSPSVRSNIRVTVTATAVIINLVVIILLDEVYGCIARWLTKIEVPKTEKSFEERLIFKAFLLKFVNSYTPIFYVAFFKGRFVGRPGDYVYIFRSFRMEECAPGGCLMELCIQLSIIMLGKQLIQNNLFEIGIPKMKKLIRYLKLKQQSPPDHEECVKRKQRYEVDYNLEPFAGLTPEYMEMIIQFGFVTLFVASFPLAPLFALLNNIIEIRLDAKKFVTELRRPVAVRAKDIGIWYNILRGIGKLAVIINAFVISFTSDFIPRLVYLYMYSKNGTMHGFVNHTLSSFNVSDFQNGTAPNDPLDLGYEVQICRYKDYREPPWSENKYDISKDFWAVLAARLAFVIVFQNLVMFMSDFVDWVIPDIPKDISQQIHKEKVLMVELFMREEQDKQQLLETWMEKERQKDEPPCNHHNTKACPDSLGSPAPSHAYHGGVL
ANO1 del476-501/E650A: Anoctamin-1 (ANO1, Homo sapiens, UniProt Q5XXA6, del476-501/E650A)
The IC50 was 10.5 µM (ANO1 del476-501/F628I; inhibitor; F602I mutant at -20 mV).
Anoctamin-1 (ANO1, Homo sapiens, UniProt Q5XXA6, del476-501/F803Y); inhibitor; 100 mV holding voltage — IC50: 13.5 µM.
The IC50 was 22.6 µM (Anoctamin-1 (ANO1, Homo sapiens, UniProt Q5XXA6, del476-501/F628Y); inhibitor; 100 mV holding voltage).
Anoctamin-1 (ANO1, Homo sapiens, UniProt Q5XXA6, del476-501/F807Y); inhibitor; 40 mV holding voltage — IC50: 9.95 µM.
It gave 3.99 µM for IC50 (ANO1 del476-501/E650A; membrane voltage 80 mV).
Anoctamin-1 (ANO1, Homo sapiens, UniProt Q5XXA6, D383A/del476-501); membrane voltage 20 mV — IC50: 4.93 µM.
For Anoctamin-1 (ANO1, Homo sapiens, UniProt Q5XXA6, del476-501/L548A); membrane voltage 20 mV: IC50 read 5.6 µM.
The IC50 was 8.13 µM (Anoctamin-1 (ANO1, Homo sapiens, UniProt Q5XXA6, del476-501/R631K); inhibitor; R605K mutant at 80 mV).
It gave 4.39 µM for IC50 (ANO1 del476-501/E650A; inhibitor; pore pocket mutant E624A at 100 mV, with: 300 nM Ca2+).
For Anoctamin-1 (ANO1, Homo sapiens, UniProt Q5XXA6, del476-501); inhibitor; -80 mV voltage, with: 300 nM Ca2+: IC50 read 3.01 µM.
ANO1 del476-501/F628I; inhibitor; F602I mutant at 40 mV — IC50: 8.95 µM.
For Anoctamin-1 (ANO1, Homo sapiens, UniProt Q5XXA6, del476-501/F803W); inhibitor; 80 mV holding voltage: IC50 read 6.37 µM.
Anoctamin-1 (ANO1, Homo sapiens, UniProt Q5XXA6, del476-501/F803A); inhibitor; mutant F777A at 100 mV, with: 300 nM Ca2+ — IC50: 14.6 ± 0.6 µM.
For Anoctamin-1 (ANO1, Homo sapiens, UniProt Q5XXA6, del476-501/R631I); inhibitor; R605I mutant at -20 mV: IC50 read 21.4 µM.

Sample 2
Species: mouse
Matrix: microsomes or S9
Tested at: 2 µM
Time: 0.5 h
The remaining compound of `Cc1cnn(CC2CN(c3nccn4nc(C)cc34)CCO2)c1` (stereo not shown) is reported as 0.111%.
With `Cc1nn(-c2ccccc2)c(N2CCCCC2)c1C=C(c1nc2ccccc2s1)c1nc2ccccc2s1` the remaining compound was 15.2%.
For `Cc1nccc(-c2ccccc2Cl)c1C(OC(C)(C)C)C(=O)NCCO` (stereo not shown), the remaining compound was 3.99%.
`Cn1c(=O)c2c(-c3ccncc3)c(Nc3ccccc3)oc2c2ccccc21` gave a remaining compound of 55.8%.
For `c1ccc(-c2nc(-c3ccc(-c4noc(-c5ccco5)n4)cc3)cs2)cc1`, the remaining compound was 43.6%.
For `CN(C(=O)c1ccc(C(=O)c2ccccc2)cc1)c1ccccc1`, the remaining compound was 0.0629%.
The remaining compound of `CCS(=O)(=O)CC(=O)N1CC(C)(C)N(C)c2cc(Br)ccc21` is reported as 13%.
`O=C(O)Cn1cnc(S(=O)(=O)N2CCCC2)c1` has a remaining compound of 79.1%.
With `NC(=O)CCN(Cc1ccccc1)C(=O)c1ccccc1OCc1ccccc1` the remaining compound was 0.269%.
`CCc1noc(CN(CC)C(=O)C2CNCCO2)n1` (stereo not shown) gave a remaining compound of 76.4%.
`CCOC(=O)C(CCC1(Cc2cccs2)C(=O)OC(C)(C)OC1=O)(NC(C)=O)C(=O)OCC` has a remaining compound of 1.06%.
`CC[C@@H](C)[C@H](NS(=O)(=O)c1ccccc1)C(=O)O` has a remaining compound of 99.4%.

Sample 3
Cell line: HaCaT
Tested at: 100 µM
Time: 18 h
The viability of `CCOC(CN1CCN(CC(C)C(=O)c2ccccc2)CC1)c1ccccc1` (stereo not shown) is reported as 81.6%.
With `CC1CCc2cc(F)cc3c(=O)c(C(=O)O)cn1c23` (stereo not shown) the viability was 92.3%.
For `CC(C)C[C@H](NC(=O)CNC(=O)c1cc(Cl)ccc1Cl)B1OC(=O)C(CC(=O)O)(CC(=O)O)O1`, the viability was 22.5%.
The viability of `O=C(Oc1ccccc1C(=O)O)c1ccccc1O` is reported as 116%.
With `CC(=O)N(O)CCCCCNC(=O)CCC(=O)N(O)CCCCCNC(=O)CCC(=O)N(O)CCCCCN` the viability was 114%.
`CN(C)CCc1c[nH]c2ccc(C[C@H]3COC(=O)N3)cc12` gave a viability of 118%.
`Nc1nc(Cl)nc2c1ncn2[C@@H]1O[C@H](CO)[C@@H](O)[C@@H]1F` has a viability of 82.7%.
With `O=C1CN(/N=C/c2ccc(-c3ccc([N+](=O)[O-])cc3)o2)C(O)=N1` the viability was 100%.
For `C[C@H]1[C@@H](O)O[C@@H]2O[C@@]3(C)CC[C@H]4[C@H](C)CC[C@@H]1[C@@]24OO3`, the viability was 62.3%.
`CCCCCCCCc1ccc(CCC(N)(CO)CO)cc1` gave a viability of 19.4%.
`COc1cc2nc(N3CCN(C(=O)C4COc5ccccc5O4)CC3)nc(N)c2cc1OC` (stereo not shown) has a viability of 16.5%.
`CC1(C)S[C@@H]2[C@H](NC(=O)[C@H](N)c3ccccc3)C(=O)N2[C@H]1C(=O)O` has a viability of 107%.
With `Cc1ccsc1C(=CCCN1CCC[C@@H](C(=O)O)C1)c1sccc1C` the viability was 118%.
`CCCCS(=O)(=O)N[C@@H](Cc1ccc(OCCCCC2CCNCC2)cc1)C(=O)O` gave a viability of 99.8%.

Sample 4
Target: Tyrosine-protein kinase ABL1, phosphorylated (ABL1, Homo sapiens, UniProt P00519, F317I)
UniProt P00519, sequence (whole entry, unmodified, looked up): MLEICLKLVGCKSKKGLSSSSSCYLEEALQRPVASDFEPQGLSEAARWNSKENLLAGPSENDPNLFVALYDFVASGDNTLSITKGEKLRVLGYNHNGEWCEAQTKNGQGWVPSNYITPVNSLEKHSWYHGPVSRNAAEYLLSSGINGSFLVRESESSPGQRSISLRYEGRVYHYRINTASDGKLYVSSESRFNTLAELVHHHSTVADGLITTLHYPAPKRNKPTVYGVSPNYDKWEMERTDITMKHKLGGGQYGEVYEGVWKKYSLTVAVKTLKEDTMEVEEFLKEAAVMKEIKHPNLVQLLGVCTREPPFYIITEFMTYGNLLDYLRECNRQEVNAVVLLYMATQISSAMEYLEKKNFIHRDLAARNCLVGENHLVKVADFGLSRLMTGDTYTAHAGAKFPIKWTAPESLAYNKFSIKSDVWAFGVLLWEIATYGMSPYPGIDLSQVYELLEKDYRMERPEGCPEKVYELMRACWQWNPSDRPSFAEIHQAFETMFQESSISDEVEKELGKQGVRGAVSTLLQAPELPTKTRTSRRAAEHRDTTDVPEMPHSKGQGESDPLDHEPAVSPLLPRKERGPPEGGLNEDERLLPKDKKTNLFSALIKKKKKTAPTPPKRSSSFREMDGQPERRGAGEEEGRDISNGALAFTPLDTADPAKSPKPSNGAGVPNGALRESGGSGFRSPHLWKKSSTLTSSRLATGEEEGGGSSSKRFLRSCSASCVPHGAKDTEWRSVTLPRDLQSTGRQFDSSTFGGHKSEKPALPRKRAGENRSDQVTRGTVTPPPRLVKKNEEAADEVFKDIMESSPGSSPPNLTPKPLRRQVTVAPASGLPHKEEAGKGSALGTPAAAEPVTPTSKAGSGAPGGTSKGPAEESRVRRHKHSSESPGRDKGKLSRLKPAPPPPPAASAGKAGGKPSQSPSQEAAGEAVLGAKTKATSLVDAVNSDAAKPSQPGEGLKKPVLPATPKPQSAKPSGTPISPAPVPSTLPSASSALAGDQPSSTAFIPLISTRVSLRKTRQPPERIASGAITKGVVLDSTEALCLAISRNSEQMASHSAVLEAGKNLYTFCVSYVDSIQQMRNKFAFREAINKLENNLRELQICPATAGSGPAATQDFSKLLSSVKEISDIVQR
Effect on: binding
Tested at: 0.1 µM
`C[C@@H](NC(=O)Nc1cc2[nH]ncc2c(CO)n1)c1ccccc1` gave a remaining binding of 80.2%.
For `Cc1ccc(-c2cnc([C@@]3(O)CC[C@H](C(=O)O)C(C)(C)C3)s2)cc1Nc1cccc(C(F)(F)F)n1`, the remaining binding was 80.1%.
`Cc1cc(Nc2nccc(C)n2)cc(-c2cnc([C@@]3(O)CC[C@H](C(=O)O)C(C)(C)C3)s2)c1` gave a remaining binding of 100%.
